Measured values gathered from unrelated publications.
Parts stem from different laboratories: compare values within a part only. Changes are numbered by the printed parent chain.

Series 1 — target: CCNB3, cyclin fold, Cln2 fusion (human); technique: yeast growth competition, sequencing; medium: yeast; setting: strong parent motif; relative to: not given; reading: higher = stronger binding
Starting sequence: viral docking peptide; CKVKRKLFGSENI; partner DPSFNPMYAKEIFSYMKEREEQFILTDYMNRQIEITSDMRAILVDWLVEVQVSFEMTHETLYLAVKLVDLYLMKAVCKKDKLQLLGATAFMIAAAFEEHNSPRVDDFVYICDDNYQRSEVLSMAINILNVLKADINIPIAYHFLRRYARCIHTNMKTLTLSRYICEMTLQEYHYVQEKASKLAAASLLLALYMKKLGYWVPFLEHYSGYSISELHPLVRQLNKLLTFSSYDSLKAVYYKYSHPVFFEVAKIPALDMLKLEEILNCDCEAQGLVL
For `CKVKRKLFGAENI [S10A]`, “normalised enrichment score” read 0.868.
Under “normalised enrichment score”, `CKVKKKLLGSENI [R5K F8L]` is recorded as 0.0465.
`CKVKRKLFGSEAI [N12A]` — result for “normalised enrichment score”: 0.975.
`CKVARKLFGSENI [K4A]` — result for “normalised enrichment score”: 0.937.

Series 2 — target: tungstate, free oxyanion; technique: microfluidic competitive inhibition; medium: in vitro, cell-free expressed; tested at: not given; reading: lower = stronger binding
Setting: derived from inhibition constants, unchanged parent 2230 nM
Starting sequence: PafA, mature enzyme, eGFP fusion (Elizabethkingia meningoseptica, UniProt Q9KJX5); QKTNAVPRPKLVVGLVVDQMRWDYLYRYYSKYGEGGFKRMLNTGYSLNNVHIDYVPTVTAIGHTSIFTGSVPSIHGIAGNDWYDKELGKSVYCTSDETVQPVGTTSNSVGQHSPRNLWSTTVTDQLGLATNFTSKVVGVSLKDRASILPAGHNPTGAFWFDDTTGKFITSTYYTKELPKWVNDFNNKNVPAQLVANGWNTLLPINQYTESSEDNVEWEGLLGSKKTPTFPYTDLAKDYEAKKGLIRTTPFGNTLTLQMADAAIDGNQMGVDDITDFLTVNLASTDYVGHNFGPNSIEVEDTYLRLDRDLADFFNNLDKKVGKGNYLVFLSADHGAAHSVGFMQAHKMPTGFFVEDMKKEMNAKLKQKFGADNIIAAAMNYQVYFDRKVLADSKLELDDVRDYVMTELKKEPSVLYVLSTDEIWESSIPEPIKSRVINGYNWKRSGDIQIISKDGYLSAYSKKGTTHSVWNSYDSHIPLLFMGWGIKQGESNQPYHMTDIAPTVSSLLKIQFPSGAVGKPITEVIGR
`T174V` — result for “oxyanion analog dissociation constant”: 2310 nM.
`V13G`: “oxyanion analog dissociation constant” 2230 nM.
For `E424G`, “oxyanion analog dissociation constant” read 2380 nM.
`G69A`: “oxyanion analog dissociation constant” 2430 nM.
For `W441V`, “oxyanion analog dissociation constant” read 1340 nM.
`P190V`: “oxyanion analog dissociation constant” 2030 nM.
`N440V` — result for “oxyanion analog dissociation constant”: 2620 nM.
For `V181A`, “oxyanion analog dissociation constant” read 1930 nM.

Series 3 — effect on: binding; technique: phage display NGS; form: peptide; tested at: concentration not given; relative to: input library
Target: UDP-N-acetylglucosamine--peptide N-acetylglucosaminyltransferase 110 kDa subunit (OGT, Homo sapiens, UniProt O15294)
UniProt O15294, sequence (whole entry, looked up): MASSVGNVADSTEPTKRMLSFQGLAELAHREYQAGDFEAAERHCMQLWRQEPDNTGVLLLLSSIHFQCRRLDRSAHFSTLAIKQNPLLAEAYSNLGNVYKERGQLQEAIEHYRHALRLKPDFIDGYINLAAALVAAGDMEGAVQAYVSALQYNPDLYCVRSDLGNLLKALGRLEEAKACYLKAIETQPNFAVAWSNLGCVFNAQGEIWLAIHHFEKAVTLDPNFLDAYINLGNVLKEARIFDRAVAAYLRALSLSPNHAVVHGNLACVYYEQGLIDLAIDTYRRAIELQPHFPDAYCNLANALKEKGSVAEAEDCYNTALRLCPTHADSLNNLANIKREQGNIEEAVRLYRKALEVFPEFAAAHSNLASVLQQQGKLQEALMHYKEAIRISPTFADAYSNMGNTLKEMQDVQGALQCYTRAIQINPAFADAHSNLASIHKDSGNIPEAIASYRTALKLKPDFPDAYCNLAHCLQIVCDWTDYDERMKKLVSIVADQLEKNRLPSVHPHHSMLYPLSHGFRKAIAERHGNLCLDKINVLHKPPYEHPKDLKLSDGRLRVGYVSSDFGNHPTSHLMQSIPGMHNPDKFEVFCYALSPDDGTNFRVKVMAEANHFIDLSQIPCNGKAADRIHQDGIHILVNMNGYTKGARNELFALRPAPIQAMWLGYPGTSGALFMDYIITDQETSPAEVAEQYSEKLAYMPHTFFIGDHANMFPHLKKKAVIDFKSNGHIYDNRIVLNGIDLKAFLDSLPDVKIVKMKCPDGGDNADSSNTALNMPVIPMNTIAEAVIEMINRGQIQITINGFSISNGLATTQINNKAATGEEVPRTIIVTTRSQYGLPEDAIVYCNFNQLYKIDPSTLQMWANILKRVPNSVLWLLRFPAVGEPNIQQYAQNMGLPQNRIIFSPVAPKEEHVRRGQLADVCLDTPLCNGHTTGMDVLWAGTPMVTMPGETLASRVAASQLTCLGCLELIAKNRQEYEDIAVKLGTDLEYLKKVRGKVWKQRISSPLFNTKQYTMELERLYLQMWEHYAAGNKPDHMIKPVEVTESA
`HKSHTPHNMDWNTVR` — result for “enrichment fold change”: 3.14.
`QEGTMPIYQIIMKYD` — result for “enrichment fold change”: 3.37.
Under “enrichment fold change”, `HYHNDFTFHFNHTFH` is recorded as 2.92.
`QPYFLPKYVITVDNS` — result for “enrichment fold change”: 8.47.
Under “enrichment fold change”, `SRSHPVEQPVNFQHH` is recorded as 3.01.
`TPYPPYYPIVYMRT`: “enrichment fold change” 4.44.
`TAPTHHGHHYASDHH` — result for “enrichment fold change”: 5.36.
`HVWSSKYSMHHQSSI`: “enrichment fold change” 4.3.

Single results of other studies
CCCCNc1cc(C(=O)O)cc(S(N)(=O)=O)c1Oc1ccccc1 gave a GFP-positive cells of 107% (HEK-293T; pseudovirus infection, FDA-approved drug library counter-screen; VSV pseudotyped with VSV-G; 10 µM, 16 h; relative to: vehicle-treated).
